Published values collected from several papers.
Numbered parts are unrelated; each lists some results of a single study. Positions count from the first letter of the parent shown.

Series 1
Target: UBE2B UBC core domain (UniProt P63146)
Chain of UniProt P63146 (whole entry, looked up): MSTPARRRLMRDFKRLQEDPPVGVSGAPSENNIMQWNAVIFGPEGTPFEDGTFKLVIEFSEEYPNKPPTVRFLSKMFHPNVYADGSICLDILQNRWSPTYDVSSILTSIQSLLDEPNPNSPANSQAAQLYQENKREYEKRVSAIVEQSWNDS
Technique: yeast two-hybrid
Sample: yeast
Notes: mostly zero background
Baseline: not given
Direction: higher = stronger interaction
B1: TRIM2 RING domain (UniProt Q9C040); chain VRQIDKQFLICSICLERYKNPKVLPCLHTFCERCLQNYIPAHSLTLSCPVCRQTSILPEKGV
B2: NHLRC1 RING domain (UniProt Q6VVB1); chain MREAEISLLECKVCFEKFGHRQQRRPRNLSCGHVVCLACVAALAHPRTLALECPFCRRACRGCDTSD
B3: UBE4B RING domain (UniProt O95155); chain KNARAEIDYSDAPDEFRDPLMDTLMTDPVRLPSGTIMDRSIILRHLLNSPTDPFNRQTLTESMLEPVPELKEQIQAWMREKQNSDH
B4: TRIM68 RING domain (UniProt Q6AZZ1); chain LVEAIVEEVACPICMTFLREPMSIDCGHSFCHSCLSGLWEIPGESQNWGYTCPLCRAPVQPRNLRP
B5: PJA2 RING domain (UniProt O43164); chain DHTAIGQEQCCPICCSEYIKDDIATELPCHHFFHKPCVSIWLQKSGTCPVCRRHFPPAVIEA
Molecule | lacZ reporter activity
B1 (TRIM2 RING domain) | 0
B2 (NHLRC1 RING domain) | 0
B3 (UBE4B RING domain) | 0
EIKDYKARLTCPCCNMRKKDAVLTKCFHVFCFECVKTRYDTRQRKCPKCNAAFGANDFHR (RNF20 RING domain (UniProt Q5VTR2)) | 0
B4 (TRIM68 RING domain) | 0
B5 (PJA2 RING domain) | 0
MEEMEEELKCPVCGSFYREPIILPCSHNLCQACARNILVQTPESESPQSHRAAGSGVSDY (TRIM9 RING domain (UniProt Q9C026)) | 0

Series 2
Target: Interferon regulatory factor 7, full length, phosphomimetic (IRF7, Homo sapiens, UniProt Q92985, residues 1-503, S101K/S471D/S472D/S475D/S476D/S477D/S483D/S484D/S487D)
Technique: protein-binding microarray
Molecule type: double-stranded DNA, one strand shown
Sample: in vitro
Tested at: 250 nM
Notes: 60-bp whole probe
Added: salmon DNA 0.4 mg/ml
Baseline: random background probes
Direction: higher = stronger binding
Constant ends, left off below: GCCTAGCAC … GTCTTGATTCGCTTGACGCTGCTG
Target sequence (chain): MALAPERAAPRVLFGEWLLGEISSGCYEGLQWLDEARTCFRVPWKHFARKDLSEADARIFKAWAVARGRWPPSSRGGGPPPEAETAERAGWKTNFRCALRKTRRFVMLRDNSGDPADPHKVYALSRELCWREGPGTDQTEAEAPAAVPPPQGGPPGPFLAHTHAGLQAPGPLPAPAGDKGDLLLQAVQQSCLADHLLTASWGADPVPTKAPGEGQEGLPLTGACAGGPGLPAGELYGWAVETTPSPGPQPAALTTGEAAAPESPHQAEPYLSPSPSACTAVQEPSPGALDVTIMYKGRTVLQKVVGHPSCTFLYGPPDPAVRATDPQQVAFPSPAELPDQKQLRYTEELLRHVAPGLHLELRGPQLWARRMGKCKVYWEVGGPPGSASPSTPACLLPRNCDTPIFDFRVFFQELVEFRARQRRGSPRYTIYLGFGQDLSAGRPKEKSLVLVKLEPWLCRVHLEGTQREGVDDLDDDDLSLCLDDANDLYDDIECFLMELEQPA
Sequence | log fluorescence
TCATTTTTACTTCGGGTACTGTGCTAG | 0.882 z-score
TTAGATCTCAGTCTCGGTTAGTGCTAG | 1.66 z-score
TTATATCTCAGTTTCGATTAGTGCTAG | 8.45 z-score
TTAGGTTTCGGTATCGGTTAGTGCTAG | 10.7 z-score
TTAGACCTGAGACTGGATTAGTGCTAG | -0.346 z-score
GCAAACCCCATTCTCAGCCCGTGCTAG | 0.484 z-score
TTAGATTTCGAGACTGGATTAGTGCTA | 0.171 z-score
TTAAGACTGCTACTGCTTTAGTGCTAG | -0.253 z-score
TTAGGTATCGACTTTCGGTCAGTGCTA | 1.69 z-score
ATATATATATTGTTAGTGTAGTGCTAG | 0.583 z-score
TTAGGACTGCTACAGCTTTAGTGCTAG | -0.471 z-score
TTAGGTCTCAGTATCGATTAGTGCTAG | 1.12 z-score
GACCGTTTCGGGACTGGGGACGTGCTA | 2.32 z-score
GCCGGTTTCGGTATCGGGACGTGCTAG | 11 z-score
TTAGGATTCCTACTGCTTTAGTGCTAG | 0.12 z-score
TCAAATTGTCTTTTCACACTGTGCTAG | 0.161 z-score
GACGGTCCCCTTCTCCTGACGTGCTAG | 0.276 z-score
TCATTCATGAAATTTTAAACTGTGCTA | 0.792 z-score
AACGATTTCAGACTGGAGACGTGCTAG | 0.0669 z-score

Series 3
Target: Phosphate system positive regulatory protein PHO4, full length, GST-tagged (PHO4, Saccharomyces cerevisiae, UniProt P07270, residues 1-312)
Technique: competition protein-binding microarray
Molecule type: double-stranded DNA, one strand shown
Sample: in vitro
Tested at: 2 µM
Notes: whole 60-bp probe, lowest competitor level
Added: Cbf1 competitor, 0.05 µM
Direction: higher = stronger binding
Constant ends, left off below: … GTCTTGATTCGCTTGACGCTGCTG
Target sequence (chain): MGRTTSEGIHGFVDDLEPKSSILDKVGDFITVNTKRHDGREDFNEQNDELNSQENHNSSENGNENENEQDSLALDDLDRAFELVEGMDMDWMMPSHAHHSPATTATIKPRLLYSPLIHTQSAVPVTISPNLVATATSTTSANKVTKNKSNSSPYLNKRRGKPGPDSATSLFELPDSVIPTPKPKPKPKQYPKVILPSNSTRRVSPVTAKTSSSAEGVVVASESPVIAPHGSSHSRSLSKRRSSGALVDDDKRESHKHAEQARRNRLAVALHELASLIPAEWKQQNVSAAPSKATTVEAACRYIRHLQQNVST
Sequence | fluorescence intensity [a.u.]
CTTCTGTAAATTTGAAGCGTGGGTGGACGCGCCCCG | 7360
CTTCTGTAAATTTGTCACCACACTTGACGCGCCCCG | 4790
CAACTTCTTTTATTGCACGTACCTTTTGGACTGGTT | 7500
TGCGCAACAACTTGTCACCAAACTTTATGTCTAGAA | 3160
AGTACTTGACTGCACCTCGTGTCGGAAGATTTTCCA | 12400
CTAGCGCCATTTCACCACATGCTTGAATAATACAGT | 11200
TCGACACACCCGCCGCATGTGCGACAATTTCTTCGG | 11600
CGTTGCCTTATCGTCCTCGTGTCCTGTCTTCGAGGT | 12200
TGAGTCTTTGGGTCCCACGTGCTTTCTAAAACTTCA | 17100

Series 4
Target: ABI1, truncated, D143A, DHFR fusion (Arabidopsis thaliana)
Technique: DHFR PCA, deep sequencing
Sample: yeast
Notes: methotrexate growth selection, single substitutions
Added: (+)-ABA 0.0091 µM
Baseline: wild-type fitted maximum
Direction: higher = stronger binding
Parent: PYL1, truncated, DHFR fusion (Arabidopsis thaliana); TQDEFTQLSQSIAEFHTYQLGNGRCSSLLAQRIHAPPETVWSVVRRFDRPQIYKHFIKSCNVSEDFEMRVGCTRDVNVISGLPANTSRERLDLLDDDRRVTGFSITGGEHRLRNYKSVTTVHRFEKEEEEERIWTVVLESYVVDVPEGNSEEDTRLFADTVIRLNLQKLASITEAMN
Substitution | relative binding score
W41P | 9.84%
Q31V | 1.31%
R74N | -0.318%
S80T | 41.2%
F66A | 4.19%
D95N | 5.47%
C60T | 0.68%
E131Q | 55.2%
V78Y | 102%
H16T | -4.13%
E109Y | -6.66%
L138T | 1.07%
D75T | 41.4%
T17G | -2.69%
I79L | 4.82%
V76I | 43.8%
P36N | 17.8%
R88V | 33.1%
R88F | 10.5%

For quick reference, copied from above (series 2):
Sequence | log fluorescence
TTAGGTCTCAGTATCGATTAGTGCTAG | 1.12 z-score
GACCGTTTCGGGACTGGGGACGTGCTA | 2.32 z-score
GCCGGTTTCGGTATCGGGACGTGCTAG | 11 z-score
TTAGGATTCCTACTGCTTTAGTGCTAG | 0.12 z-score
TCAAATTGTCTTTTCACACTGTGCTAG | 0.161 z-score
GACGGTCCCCTTCTCCTGACGTGCTAG | 0.276 z-score
TCATTCATGAAATTTTAAACTGTGCTA | 0.792 z-score
AACGATTTCAGACTGGAGACGTGCTAG | 0.0669 z-score
